# Experimental data of several laboratories.
# Numbered parts are unrelated; each lists some results of a single study. Positions count from the first letter of the parent shown.

# Set 1
# Target: ABI1, truncated, D143A, DHFR fusion (Arabidopsis thaliana)
# Technique: DHFR PCA, deep sequencing
# Matrix: yeast
# Setting: methotrexate growth selection, single substitutions
# Together with: (+)-ABA 0.39 µM
# Baseline: wild-type fitted maximum
# Reading: higher = stronger binding
# Starting sequence: PYL1, truncated, DHFR fusion (Arabidopsis thaliana); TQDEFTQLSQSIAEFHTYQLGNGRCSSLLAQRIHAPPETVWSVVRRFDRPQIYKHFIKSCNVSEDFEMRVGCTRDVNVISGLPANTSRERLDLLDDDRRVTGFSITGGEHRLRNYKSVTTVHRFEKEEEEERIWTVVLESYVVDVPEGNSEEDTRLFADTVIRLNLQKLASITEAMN; partner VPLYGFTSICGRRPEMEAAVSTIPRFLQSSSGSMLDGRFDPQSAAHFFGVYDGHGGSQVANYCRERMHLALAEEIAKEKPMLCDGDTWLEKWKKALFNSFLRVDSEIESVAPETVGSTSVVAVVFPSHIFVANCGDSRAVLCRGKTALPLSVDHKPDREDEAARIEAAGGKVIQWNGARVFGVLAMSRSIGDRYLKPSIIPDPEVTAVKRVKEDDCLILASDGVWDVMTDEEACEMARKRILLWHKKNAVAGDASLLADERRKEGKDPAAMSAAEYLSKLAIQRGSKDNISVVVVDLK
Variant,relative binding score [%]
E109H,21.9
Q2H,47.7
G108V,-8.08
S27T,-0.936
F124K,-2.32
L94S,0.242
F103L,4.91
D92G,-0.449

# Set 2
# Target: PABPC1L2, full length, GST fusion (mouse, UniProt A0ABA7IW68)
# Technique: RNAcompete
# Molecule type: RNA
# Matrix: in vitro
# Concentration: 20 nM
# Setting: 7-mer, probes averaged, single round
# Baseline: mean of 7-mers
# Reading: higher = stronger binding
# Target sequence (chain): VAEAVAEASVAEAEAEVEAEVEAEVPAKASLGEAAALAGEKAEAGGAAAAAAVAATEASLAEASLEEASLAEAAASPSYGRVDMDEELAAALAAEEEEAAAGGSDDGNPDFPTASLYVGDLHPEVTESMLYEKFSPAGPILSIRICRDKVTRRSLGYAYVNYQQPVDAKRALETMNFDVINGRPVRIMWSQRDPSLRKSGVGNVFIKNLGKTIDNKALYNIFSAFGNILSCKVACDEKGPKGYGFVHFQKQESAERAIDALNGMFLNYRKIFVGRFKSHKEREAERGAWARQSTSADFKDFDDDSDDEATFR
Oligonucleotide,7-mer Z-score
GCUAGUC,-0.345
CCGGUUC,-0.217
UCGACCG,-0.0609
GUGUGGA,0.222
UUGAUUA,0.0315
CCUCUCA,-0.431
UCCGUGG,-0.184
GCCUCUC,-0.387

# Set 3
# Target: JUND, bZIP domain (human)
# Technique: DHFR protein complementation
# Matrix: yeast
# Setting: single substitutions, most at no-binding floor
# Baseline: wild-type JUN-FOS pair
# Reading: higher = stronger binding
# Starting sequence: JUN, bZIP domain (human); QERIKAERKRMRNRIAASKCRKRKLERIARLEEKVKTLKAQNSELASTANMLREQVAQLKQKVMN
Variant,binding fitness
L31D,-1.2 natural log
Q41F,-1.45 natural log
K39P,-1.42 natural log
I28S,-1.26 natural log
L52I,-1.36 natural log
A49P,-1.47 natural log
L38P,-1.44 natural log
Q55G,-1.38 natural log

# Mixed results
# Starting sequence: PafA, mature enzyme, eGFP fusion (Elizabethkingia meningoseptica, UniProt Q9KJX5); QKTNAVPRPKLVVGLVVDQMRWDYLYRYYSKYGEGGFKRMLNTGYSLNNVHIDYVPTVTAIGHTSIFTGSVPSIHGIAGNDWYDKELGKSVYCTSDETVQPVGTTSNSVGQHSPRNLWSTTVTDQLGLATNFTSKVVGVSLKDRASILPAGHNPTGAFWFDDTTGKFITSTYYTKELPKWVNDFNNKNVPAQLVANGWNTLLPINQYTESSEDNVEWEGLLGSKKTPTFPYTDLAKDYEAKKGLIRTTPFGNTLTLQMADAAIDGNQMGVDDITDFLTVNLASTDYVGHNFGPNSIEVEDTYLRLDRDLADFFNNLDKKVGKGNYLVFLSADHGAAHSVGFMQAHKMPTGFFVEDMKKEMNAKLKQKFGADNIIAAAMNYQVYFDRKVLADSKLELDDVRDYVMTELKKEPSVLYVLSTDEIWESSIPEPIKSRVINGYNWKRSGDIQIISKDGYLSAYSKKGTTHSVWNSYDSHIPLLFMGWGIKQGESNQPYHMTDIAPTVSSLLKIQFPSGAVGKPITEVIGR
Variant,target,assay,test system,setting,scale,quantity,result
P230G,"tungstate, free oxyanion",microfluidic competitive inhibition,"in vitro, cell-free expressed","not given, derived from inhibition constants, unchanged parent 2230 nM",lower = stronger binding,oxyanion analog dissociation constant,1.78 µM

# Excerpt of the above (set 2):
Oligonucleotide,7-mer Z-score
GUGUGGA,0.222
UUGAUUA,0.0315
CCUCUCA,-0.431
